Measurements gathered from unrelated publications.
Numbered parts are unrelated; each lists some results of a single study. Positions count from the first letter of the parent shown.

Series 1 — target: CCNB1, cyclin fold, Cln2 fusion (human); technique: yeast growth competition, sequencing; medium: yeast; setting: weak parent motif; relative to: not given; direction: higher = stronger binding; measurement: normalised enrichment score
Starting sequence: BRCA2 docking peptide (human); CKKRRALDFLSRL
CKKRRALDFLARL [S11A]: 0.726
CKKRRALDALSRL [F9A]: 0.803
CKKRRALDLLSRL [F9L]: 0.47
CKKRKALDFLSRL [R5K]: 0.19
CKKRRALDFLSAL [R12A]: 1.24
CKKRAALDFLSRL [R5A]: 0.854
AKKRRALDFLSRL [C1A]: 0.462
CKARRALDFLSRL [K3A]: 0.618
CKKRAAADFLSRL [R5A L7A]: 1.16

Series 2 — technique: RNA Bind-n-Seq; molecule type: RNA; medium: in vitro; tested at: not given; relative to: input RNA pool; direction: higher = stronger binding; measurement: bound/input enrichment
Target: RING finger protein unkempt homolog, zinc fingers 1-6, GST-SBP tag (UNK, Homo sapiens, UniProt Q9C0B0, residues 30-357)
Chain of UniProt Q9C0B0 (30-357, looked up): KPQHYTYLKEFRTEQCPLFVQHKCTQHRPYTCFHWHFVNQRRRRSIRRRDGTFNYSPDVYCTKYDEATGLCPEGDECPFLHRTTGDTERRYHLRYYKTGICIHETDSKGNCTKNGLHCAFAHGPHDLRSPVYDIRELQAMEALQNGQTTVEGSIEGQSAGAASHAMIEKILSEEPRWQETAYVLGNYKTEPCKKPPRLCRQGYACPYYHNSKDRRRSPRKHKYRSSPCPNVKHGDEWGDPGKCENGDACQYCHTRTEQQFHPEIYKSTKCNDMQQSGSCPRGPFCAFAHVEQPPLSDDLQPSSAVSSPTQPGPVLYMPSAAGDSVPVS
Setting: RNA with constant flanks, human and mouse sites, ends assumed
All sequences stand within: GGGAGUUCUACAGUCCGACGAUC … CAACAGAGGAUUGAGCAUCA
AUUGAAAUAAAAGUAUUAUCAGAACUUGGUAGAGAAGCUCAGAAUCUUUCAGCUAUGGAAAUUAGAAAGAAAGCUAGAUCAUUUGCUAAAGCAGCCAUUGAGAAACAGAAAUCAGCAUUU: 0.983 ratio
GGUGGUAAUUUUAAGGCCUAAAGAAAGCUGGGGUUAAUCCUGAAGCUAAAAGUAAAUGUUUCUUGAAUUGAUUUUGUUCUGUGGUACAAAUAACAUCUAUGAAUAUCAUAUCUGUAUAUA: 0.31 ratio
UCUGCACUUGUUUUAAGAGCCCAAGCCUCUGAGGUCUUACUUGAAGAGUUACAACAGAGCUUUUCCCAAGCAAAGAGGGACGUUCAGGAGCAGAUGGCGGUGCUGAUGCAGUCACGUGAA: 0.183 ratio
UCCGAGUCUUAGGAGGACGAACAUUCAAAGGACAGAUUCCAAUGUGGUGUGCCGUGCACAUCGGGAGCGGCUGGGGUUUGCACUUCGAGAUUUCUUCUAUAUAAUUUUUUUUUUUAAACG: 4.01 ratio
UGAACACAUGACGUCAGAUCAAAGAAAACAGAUCUUCUCCAGAUUGGCAGAAAGUUGAUAUAGGUGGACUUUUUUACAGGUCAGUUGAGGCAAAAAACUAUGGGUUUUUUCAGGUGAACC: 0.314 ratio
CUGUUCAUGGGCAAUCUGAGGAAUAAAUGUUUGCAGUGGCCCCCAAGCGAUUCUGCUUUUGAAACCAACACCACUUCCUACUUUAAUGGCACAAUGGAUUCAAAUGGGACAUUUGUUAAU: 0.143 ratio
UUCUUGCCCAUGGAAUCUCCAGGGGUGGAAAUAGGGGAUGUGGCCACUGGUGGGCCUUGCUUAGUCCCUGCCUUGUUGUCUUAUGGUCUCCACUUGCUUUUCUGUCUUGUCUUUUUCUUU: 0.156 ratio
GUCCCCGCAGCCUAUGGCCCAGGCCGCCUUGGGUAUUUCUGCUCAAGGUAACCACAUCCCUCUUUAAAAAUUCCGCCGAAAAAGAGAAGACGCUUUACCCGACUCUUUGGGCCGUUAUCU: 0.281 ratio

Series 3 — technique: protein binding microarray; molecule type: double-stranded DNA, one strand shown; medium: in vitro; tested at: not given; relative to: not given; direction: higher = stronger binding; measurement: E-score
Target: Histone acetyltransferase KAT6A, winged helix 2, GST fusion (KAT6A, Homo sapiens, UniProt Q92794, residues 85-181)
Setting: 8-mer, flanks averaged, mean of 2 arrays, mostly near background
Construct (chain): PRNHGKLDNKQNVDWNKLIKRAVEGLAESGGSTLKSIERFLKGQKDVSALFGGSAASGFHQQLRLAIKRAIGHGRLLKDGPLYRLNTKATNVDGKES
CATCATGG: -0.0133
GTCGCAAA: 0.0383
AACGCTCA: -0.214
GCGTTGTA: -0.141
ACCAAGCA: -0.0329
CCACCAGC: 0.102
TGGCGACA: 0.0521
AGCTAGTG: -0.0201
GTAGCCGA: 0.0442
AAAGTATT: -0.0443
GGCAAACC: 0.157
CGTAGGAA: -0.0306
CTTTCATC: -0.0476
GACTGCCA: 0.0149
ACAAAATG: -0.0292
ATGGCCGG: 0.0462
GTCACCCA: 0.014
GGTCTTAA: -0.14
CAGTCTCA: -0.00024

Series 4 — technique: RNA Bind-n-Seq; molecule type: RNA; medium: in vitro; tested at: 365 nM; relative to: no-protein control; direction: higher = stronger binding; measurement: RBNS enrichment (R)
Target: RNA binding protein fox-1 homolog 2, RRM domain, GST-SBP tag (RBFOX2, Homo sapiens, UniProt O43251-10, residues 100-194)
Setting: natural RNA segment, single round, ends assumed
All sequences stand within: GGGAGUUCUACAGUCCGACGAUC … UGGAAUUCUCGGGUGCCAA
Residues (chain): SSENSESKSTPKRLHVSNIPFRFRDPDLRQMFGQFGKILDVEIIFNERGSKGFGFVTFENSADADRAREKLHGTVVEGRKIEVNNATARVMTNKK
AGCUGUUGCAAUCAAGGCCAUGGCAAAAUAACCGGCUUCCAGGGUGGCGGUGGUGGCAGCAGUGAUCCAUGAGCCUACAGAGGCCCCUCCCCCAGCCAGGUUCUGCUCUG: 0.507
GCAGACUGAUUCGAACACAAGGCAUCUGUGAGGGGAGUCCUCCCUCUUCAAAGCAUCUGUGUGAGGGGGUCUUCCCUCUUACAAGAAAGCUGUCUGUUGGGGGUUACAAG: 0.519
AUUGUGAUAUUUUCUUAGUCUGUUCUGUUUUAUUUAAAAAAUAAAACUGCUGAUCAAGACAAGUGAAUGGAGUUUGUGAUCCAUUCAUGAGUUGCCACCCACAGUUUAGA: 0.375
CGUCAGAAGGAAGCCAGUGUGACCACUAACUAAGAUGAAGACACAUGGAAAUGAUGGCACUGGAGGUGGAGGACCUUGCACGCAUACUCUUUGUGACCACAGGGUUGCAG: 1.24
UGCUUUCCCUCGCAAGCCCUUCUAUAGCUCCCAGCCCACGGGAGAGGCCAUGAGGAGCGCGAGGUCGCCAGCAGCCCCACUGGGCCUCCCACACCAUCUGAGUGACUUGA: 0.332
UGAGACCCCAAGGGAAAGGAGAGAGUUGCUUCUCAUUUCUGAUUUUAUUGUGCUGUUACUCUGUCGAGUGGCUAUUAAAAUUGUCUUAUGCUCUUUGGGCUAAGAGGGGA: 0.383
UCUUGUCCCAGCUUCUCCCCUGGGGGCCUGAGAGACCCUCACCUUCCUUCUGCCCAUCUUCCAUGUUGUAAAGGAACAGCCCCAGUGCACUGGGGGAGGGGAGGGAGUGA: 0.239
AAGUCCCAGGUUUAAAAAGCAAAGCAAAACAAAAAUAACCACGUAUUCUCUAAAGGGCUCUUGUCUGUUCAUUCAUCUCCCAUUCGUUCACUUAGUCAACAAGUGAUAAG: 0.643

For quick reference, copied from above (series 3):
CTTTCATC: -0.0476
CGTAGGAA: -0.0306
CAGTCTCA: -0.00024
CCACCAGC: 0.102
GTAGCCGA: 0.0442
AGCTAGTG: -0.0201
